Measurements of several laboratories.
Every numbered part comes from another study and shows a few of its results, in no order. Substitutions count along the parent as printed.

Series 1 — technique: DHFR PCA, deep sequencing; medium: yeast; together with: (+)-ABA 4.8 µM; baseline: wild-type fitted maximum; reading: higher = stronger binding
Target: ABI1, truncated, D143A, DHFR fusion (Arabidopsis thaliana)
Notes: methotrexate growth selection, single substitutions
Starting sequence: PYL1, truncated, DHFR fusion (Arabidopsis thaliana); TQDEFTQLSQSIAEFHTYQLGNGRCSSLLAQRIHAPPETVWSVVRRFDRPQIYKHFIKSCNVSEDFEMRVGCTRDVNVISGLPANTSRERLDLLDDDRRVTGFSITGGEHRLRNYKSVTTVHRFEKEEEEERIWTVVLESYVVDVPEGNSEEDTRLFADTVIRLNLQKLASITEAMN; partner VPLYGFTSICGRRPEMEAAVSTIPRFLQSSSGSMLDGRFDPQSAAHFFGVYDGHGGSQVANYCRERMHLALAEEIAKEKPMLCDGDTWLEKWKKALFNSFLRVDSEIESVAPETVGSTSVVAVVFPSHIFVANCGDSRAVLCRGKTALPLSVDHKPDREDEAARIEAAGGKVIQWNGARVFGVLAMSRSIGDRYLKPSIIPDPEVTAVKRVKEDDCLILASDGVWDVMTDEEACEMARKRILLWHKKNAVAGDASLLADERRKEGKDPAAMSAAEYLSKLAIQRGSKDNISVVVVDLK
Variant | relative binding score [%]
H55Y | 65.4
P83A | 45.3
V43I | 73.7
K168H | 72.8
L82H | 17.3
V78Q | 0.584
P37G | -0.594
L82E | 7.25
R46W | -2.83
Q31C | 16.3
N177A | 96.2
G108Q | -9.98
R123I | -0.112
F56S | -7.55
L166M | 25.1
T160L | 62.2
V121H | -4.01

Series 2 — technique: RNAcompete; form: RNA; medium: in vitro; tested at: 20 nM; notes: 7-mer, probes averaged, single round; baseline: mean of 7-mers; reading: higher = stronger binding
Target: PABPC1L2, full length, GST fusion (mouse, UniProt A0ABA7IW68)
Construct (chain): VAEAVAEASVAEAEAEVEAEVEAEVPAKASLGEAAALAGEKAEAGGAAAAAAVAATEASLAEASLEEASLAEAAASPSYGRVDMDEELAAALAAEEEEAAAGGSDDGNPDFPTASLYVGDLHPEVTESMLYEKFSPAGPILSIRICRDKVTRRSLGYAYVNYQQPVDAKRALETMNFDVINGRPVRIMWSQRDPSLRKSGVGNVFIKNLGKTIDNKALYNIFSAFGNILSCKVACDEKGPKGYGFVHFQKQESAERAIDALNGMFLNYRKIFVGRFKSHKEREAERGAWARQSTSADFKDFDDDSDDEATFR
Strand | 7-mer Z-score
CGGGGGA | 0.45
GUGUCUG | -0.266
GUUCCUC | -0.4
CCCUGUU | -0.478
GCAGUAG | -0.164
AGAUAGA | -0.0627
GACUUGG | 0.095
UCGAACG | -0.32
UGUCGGA | -0.151
UAUAAUA | -0.0482
UUUUAAC | -0.208
GUGAUUC | -0.204
CCUCUCC | -0.421
CACGUAU | -0.0464
UAUUUUC | -0.333
UAGAUCC | -0.0337

Series 3 — technique: competition protein-binding microarray; form: double-stranded DNA, one strand shown; medium: in vitro; tested at: 2 µM; together with: Pho4 competitor, 0.05 µM; reading: higher = stronger binding
Target: Centromere-binding protein 1, full length, His-tagged (CBF1, Saccharomyces cerevisiae, UniProt P17106, residues 1-351)
Sequence of UniProt P17106 (whole entry, looked up): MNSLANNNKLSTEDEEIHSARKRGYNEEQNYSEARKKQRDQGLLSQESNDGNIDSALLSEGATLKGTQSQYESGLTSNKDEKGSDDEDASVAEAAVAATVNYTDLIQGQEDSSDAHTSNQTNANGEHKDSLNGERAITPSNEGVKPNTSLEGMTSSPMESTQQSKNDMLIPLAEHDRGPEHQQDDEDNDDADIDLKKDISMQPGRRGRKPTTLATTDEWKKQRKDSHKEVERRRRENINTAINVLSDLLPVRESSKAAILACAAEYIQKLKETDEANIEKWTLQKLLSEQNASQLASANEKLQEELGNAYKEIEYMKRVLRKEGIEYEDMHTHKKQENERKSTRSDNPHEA
Notes: whole 60-bp probe, lowest competitor level
Strand | fluorescence intensity
AAATTACTAAGTTGGCACGTGTTTTACCCCGTATGAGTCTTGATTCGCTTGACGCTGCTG | 1640 a.u.
AAAGCGGTAATTTGCTTTGTGGGTGCAGATATCTATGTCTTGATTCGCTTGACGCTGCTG | 82.6 a.u.
CTTTCAGAGGTGGATCTCGTGGCCGATCATTTAGAGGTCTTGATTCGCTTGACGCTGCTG | 112 a.u.
TGAAATGGAATCGACCACGGGTCTTATTGAAAGCGGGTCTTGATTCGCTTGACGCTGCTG | 95.1 a.u.
TACTTAATAATCGACCACGTTTCAAATTCAATAATGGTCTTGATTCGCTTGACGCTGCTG | 228 a.u.
CGGGGTTAAGTTTGCGACGTGGGTGGCTTGCAGCAGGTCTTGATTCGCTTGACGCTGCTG | 63.7 a.u.
TTACCCCAACATTACCTCGTGGTGAGTGGAGAATCAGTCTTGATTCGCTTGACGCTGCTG | 93.3 a.u.
GGTGCCTTATTTCCGCACGTTTTTCAACATACGGCTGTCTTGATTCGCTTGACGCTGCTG | 186 a.u.
CTTCTGTAAATTTGCTAAGTGGGTGGACGCGCCCCGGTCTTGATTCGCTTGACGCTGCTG | 86.8 a.u.
GTCTTGTCTCATTGTCACTTTACTTTCCCCACTTCAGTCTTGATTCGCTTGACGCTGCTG | 79.6 a.u.
TGGAATCGAGTGTCGCAATAGACCAAACTGAAGTACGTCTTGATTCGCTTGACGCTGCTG | 66.5 a.u.
AAATTACTAAGTTGCGACGTGGGTGACGCCGTATGAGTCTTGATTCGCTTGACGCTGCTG | 54.1 a.u.
TGTTAGCGCAAATGCTACATGACAGGCCAATCGTAGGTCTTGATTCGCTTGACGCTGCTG | 67 a.u.
AGGGACGAGGGTTGCCACGAGGAGGTAGGAAGGAGCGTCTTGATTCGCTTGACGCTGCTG | 83.6 a.u.
CGTCCTAGTGATTGTCACTCGACTTCCATGAGGAAGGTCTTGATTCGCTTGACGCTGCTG | 77 a.u.
GGTTGCGACGGAATCCACGTGCAAAACAACATAGTCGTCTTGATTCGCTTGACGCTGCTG | 1010 a.u.
GCTGCTAACGATCAACACCTGACCGAGATAACAGCAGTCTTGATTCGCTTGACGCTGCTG | 523 a.u.
AAAGAAGAAGAAACCTCCGTGGGTAATCGTTTGAATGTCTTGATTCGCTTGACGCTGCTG | 56.8 a.u.

Series 4 — technique: protein binding microarray; form: double-stranded DNA, one strand shown; medium: in vitro; tested at: not given; baseline: not given; reading: higher = stronger binding
Target: Histone acetyltransferase KAT6A, winged helix 2, GST fusion (KAT6A, Homo sapiens, UniProt Q92794, residues 85-181)
Notes: 8-mer, flanks averaged, mean of 2 arrays, mostly near background
Target sequence (chain): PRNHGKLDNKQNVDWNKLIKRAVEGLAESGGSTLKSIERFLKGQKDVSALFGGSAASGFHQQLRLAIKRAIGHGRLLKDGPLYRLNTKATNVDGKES
Strand | E-score
CAGTGAAG | -0.0146
AACGGCTT | 0.0223
ATTAGCGA | -0.0998
GGCGAAAA | 0.121
AAAAGGGG | 0.00449
ATGACAGC | -0.0247
AGATATGC | 0.0305
CGCTAGAG | 0.00367
AACGGACG | -0.0369
ACTTTGGC | 0.0262
TTCACCAA | 0.0601
AAGCATTC | 0.0193
CCGTTGGC | 0.0883
GTTACCGA | -0.0217
ACACTAAT | -0.121
ACAACTCT | -0.0195
TAACTTCA | 0.0417
AGTAAACT | 0.0164
ACAGGATG | 0.0122
CTTTGGTC | 0.0894
CCCTCTAG | -0.0763
GAGGCTGC | 0.142
CTACCTAC | 0.0111
ATCTCTAG | -0.0366
CGCGTCGA | 0.118

Series 5 — technique: universal PBM; form: double-stranded DNA, one strand shown; medium: in vitro; tested at: 600 nM; reading: higher = stronger binding
Target: Sal-like protein 4, full length isoform A (SALL4, Homo sapiens, UniProt Q9UJQ4, residues 1-1053)
Sequence of UniProt Q9UJQ4 (whole entry, looked up): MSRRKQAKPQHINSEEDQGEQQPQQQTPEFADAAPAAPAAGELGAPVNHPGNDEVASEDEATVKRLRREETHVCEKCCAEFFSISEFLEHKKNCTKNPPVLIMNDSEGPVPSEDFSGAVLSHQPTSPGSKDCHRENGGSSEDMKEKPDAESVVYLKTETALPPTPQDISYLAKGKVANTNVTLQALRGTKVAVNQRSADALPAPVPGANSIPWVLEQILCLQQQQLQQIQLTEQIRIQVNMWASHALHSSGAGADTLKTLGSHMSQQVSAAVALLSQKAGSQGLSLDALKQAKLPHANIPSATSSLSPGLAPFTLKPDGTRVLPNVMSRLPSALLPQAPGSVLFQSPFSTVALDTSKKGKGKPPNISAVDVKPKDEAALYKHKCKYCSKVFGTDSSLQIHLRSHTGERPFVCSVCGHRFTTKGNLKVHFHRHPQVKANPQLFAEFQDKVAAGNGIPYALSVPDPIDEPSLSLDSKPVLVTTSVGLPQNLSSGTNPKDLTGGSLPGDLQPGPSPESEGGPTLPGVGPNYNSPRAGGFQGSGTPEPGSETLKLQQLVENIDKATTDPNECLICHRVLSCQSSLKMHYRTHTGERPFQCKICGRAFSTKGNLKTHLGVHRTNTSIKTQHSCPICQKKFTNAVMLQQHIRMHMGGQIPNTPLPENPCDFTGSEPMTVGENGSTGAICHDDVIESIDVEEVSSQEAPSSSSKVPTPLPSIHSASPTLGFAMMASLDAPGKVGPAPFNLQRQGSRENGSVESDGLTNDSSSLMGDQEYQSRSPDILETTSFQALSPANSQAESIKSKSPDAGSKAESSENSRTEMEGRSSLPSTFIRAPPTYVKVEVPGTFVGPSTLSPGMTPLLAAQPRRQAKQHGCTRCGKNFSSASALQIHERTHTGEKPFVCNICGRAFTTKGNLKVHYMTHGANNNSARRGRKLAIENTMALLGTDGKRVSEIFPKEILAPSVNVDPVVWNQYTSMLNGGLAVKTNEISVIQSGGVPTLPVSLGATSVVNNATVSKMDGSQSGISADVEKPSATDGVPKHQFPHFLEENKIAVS
Notes: 8-mer, flanks averaged, mean of replicates
Strand | E-score
ACTTACAT | 0.181
CCACCGCA | -0.196
CGCTAGAA | -0.0634
AAGACAAA | 0.0786
AGTAGTAA | 0.25
TCAGTAAA | 0.117
ATCGCTGA | 0.0585
CCGGCAAA | -0.104
CGCTGTGC | -0.23
GATCAGCC | -0.292
ATACTGGC | -0.0539
ATGGCGAC | -0.191
CCAGAGGA | -0.13
GCGCTTCA | -0.146
GATCGGAA | -0.00568
AGGCCCCT | -0.399
GGTGACAC | -0.22
AGTATGGG | 0.0453
ATCTCACA | 0.119
CAAACGCG | -0.0552
AATCAGGA | -0.0515
CCTCCGCA | -0.209
AAGAGTGC | -0.15
CAGAATGA | 0.146
CGACTACC | -0.221

Excerpt of the above (series 3):
Strand | fluorescence intensity
GTCTTGTCTCATTGTCACTTTACTTTCCCCACTTCAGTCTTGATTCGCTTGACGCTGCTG | 79.6 a.u.
TGGAATCGAGTGTCGCAATAGACCAAACTGAAGTACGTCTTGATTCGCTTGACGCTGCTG | 66.5 a.u.
AAATTACTAAGTTGCGACGTGGGTGACGCCGTATGAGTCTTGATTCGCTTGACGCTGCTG | 54.1 a.u.
TGTTAGCGCAAATGCTACATGACAGGCCAATCGTAGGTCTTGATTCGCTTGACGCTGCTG | 67 a.u.
AGGGACGAGGGTTGCCACGAGGAGGTAGGAAGGAGCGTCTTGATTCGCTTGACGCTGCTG | 83.6 a.u.
CGTCCTAGTGATTGTCACTCGACTTCCATGAGGAAGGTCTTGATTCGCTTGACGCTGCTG | 77 a.u.
GGTTGCGACGGAATCCACGTGCAAAACAACATAGTCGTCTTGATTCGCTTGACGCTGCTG | 1010 a.u.
GCTGCTAACGATCAACACCTGACCGAGATAACAGCAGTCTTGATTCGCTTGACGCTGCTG | 523 a.u.
